Results gathered from unrelated publications.
A part holds a random share of what one study measured.
UniProt Q9H0K1, sequence (whole entry, looked up): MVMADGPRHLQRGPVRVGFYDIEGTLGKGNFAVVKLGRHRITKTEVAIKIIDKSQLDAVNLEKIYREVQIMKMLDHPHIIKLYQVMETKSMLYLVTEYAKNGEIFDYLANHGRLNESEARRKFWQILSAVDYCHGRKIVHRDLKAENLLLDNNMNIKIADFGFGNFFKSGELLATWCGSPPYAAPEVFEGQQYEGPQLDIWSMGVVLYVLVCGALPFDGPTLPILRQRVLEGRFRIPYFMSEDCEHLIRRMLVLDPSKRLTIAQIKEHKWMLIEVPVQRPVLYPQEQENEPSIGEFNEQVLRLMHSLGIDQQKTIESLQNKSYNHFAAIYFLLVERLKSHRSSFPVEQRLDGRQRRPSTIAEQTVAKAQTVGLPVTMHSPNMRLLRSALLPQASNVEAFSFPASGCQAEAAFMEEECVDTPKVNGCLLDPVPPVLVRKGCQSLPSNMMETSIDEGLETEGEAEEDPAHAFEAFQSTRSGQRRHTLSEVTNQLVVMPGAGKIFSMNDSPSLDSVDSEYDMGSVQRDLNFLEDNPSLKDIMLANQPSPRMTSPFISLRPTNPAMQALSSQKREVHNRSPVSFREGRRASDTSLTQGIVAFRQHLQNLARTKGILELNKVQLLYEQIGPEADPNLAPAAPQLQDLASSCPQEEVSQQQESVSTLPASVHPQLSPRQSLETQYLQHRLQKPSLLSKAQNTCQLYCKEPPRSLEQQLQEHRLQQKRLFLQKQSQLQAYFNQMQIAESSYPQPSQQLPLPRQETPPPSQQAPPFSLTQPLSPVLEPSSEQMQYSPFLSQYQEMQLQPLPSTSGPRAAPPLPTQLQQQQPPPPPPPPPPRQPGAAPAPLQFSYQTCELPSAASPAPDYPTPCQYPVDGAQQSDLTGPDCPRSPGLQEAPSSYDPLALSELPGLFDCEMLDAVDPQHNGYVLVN
UniProt Q96SB4, sequence (whole entry, looked up): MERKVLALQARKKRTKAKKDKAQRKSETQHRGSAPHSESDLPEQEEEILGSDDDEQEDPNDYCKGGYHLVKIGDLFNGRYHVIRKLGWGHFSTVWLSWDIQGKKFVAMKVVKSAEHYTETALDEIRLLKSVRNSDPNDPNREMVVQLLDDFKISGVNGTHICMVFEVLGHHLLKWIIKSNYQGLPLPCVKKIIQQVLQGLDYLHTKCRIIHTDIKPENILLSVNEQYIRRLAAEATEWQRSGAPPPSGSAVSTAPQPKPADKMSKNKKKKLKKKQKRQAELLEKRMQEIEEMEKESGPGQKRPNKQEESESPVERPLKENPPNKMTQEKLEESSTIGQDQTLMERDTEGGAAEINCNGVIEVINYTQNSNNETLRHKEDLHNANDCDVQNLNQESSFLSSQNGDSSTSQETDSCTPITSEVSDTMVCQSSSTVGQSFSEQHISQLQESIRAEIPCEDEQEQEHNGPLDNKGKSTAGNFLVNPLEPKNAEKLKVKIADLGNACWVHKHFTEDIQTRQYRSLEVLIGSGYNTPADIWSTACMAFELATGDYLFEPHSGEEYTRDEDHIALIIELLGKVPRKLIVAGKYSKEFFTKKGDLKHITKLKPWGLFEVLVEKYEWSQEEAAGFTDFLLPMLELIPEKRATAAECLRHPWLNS
UniProt Q14012, sequence (whole entry, looked up): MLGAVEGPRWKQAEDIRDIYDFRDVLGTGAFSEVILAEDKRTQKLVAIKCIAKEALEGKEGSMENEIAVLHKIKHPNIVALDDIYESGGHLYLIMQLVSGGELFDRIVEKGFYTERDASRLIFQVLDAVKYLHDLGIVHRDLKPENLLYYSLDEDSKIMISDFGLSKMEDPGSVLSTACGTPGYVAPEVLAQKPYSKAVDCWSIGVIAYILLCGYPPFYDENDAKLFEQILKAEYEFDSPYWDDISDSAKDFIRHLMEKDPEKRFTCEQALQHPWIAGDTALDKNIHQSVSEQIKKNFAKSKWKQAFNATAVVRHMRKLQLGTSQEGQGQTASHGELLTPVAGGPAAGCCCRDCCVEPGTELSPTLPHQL
UniProt Q93WC4, sequence (whole entry, looked up): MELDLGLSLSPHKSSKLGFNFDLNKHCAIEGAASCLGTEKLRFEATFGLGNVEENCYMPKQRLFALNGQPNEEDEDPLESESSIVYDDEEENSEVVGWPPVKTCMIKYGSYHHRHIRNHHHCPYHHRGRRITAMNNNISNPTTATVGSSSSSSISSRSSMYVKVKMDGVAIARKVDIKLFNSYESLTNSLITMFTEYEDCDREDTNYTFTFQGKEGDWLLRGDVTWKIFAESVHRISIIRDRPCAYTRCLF
UniProt O23661, sequence (whole entry, looked up): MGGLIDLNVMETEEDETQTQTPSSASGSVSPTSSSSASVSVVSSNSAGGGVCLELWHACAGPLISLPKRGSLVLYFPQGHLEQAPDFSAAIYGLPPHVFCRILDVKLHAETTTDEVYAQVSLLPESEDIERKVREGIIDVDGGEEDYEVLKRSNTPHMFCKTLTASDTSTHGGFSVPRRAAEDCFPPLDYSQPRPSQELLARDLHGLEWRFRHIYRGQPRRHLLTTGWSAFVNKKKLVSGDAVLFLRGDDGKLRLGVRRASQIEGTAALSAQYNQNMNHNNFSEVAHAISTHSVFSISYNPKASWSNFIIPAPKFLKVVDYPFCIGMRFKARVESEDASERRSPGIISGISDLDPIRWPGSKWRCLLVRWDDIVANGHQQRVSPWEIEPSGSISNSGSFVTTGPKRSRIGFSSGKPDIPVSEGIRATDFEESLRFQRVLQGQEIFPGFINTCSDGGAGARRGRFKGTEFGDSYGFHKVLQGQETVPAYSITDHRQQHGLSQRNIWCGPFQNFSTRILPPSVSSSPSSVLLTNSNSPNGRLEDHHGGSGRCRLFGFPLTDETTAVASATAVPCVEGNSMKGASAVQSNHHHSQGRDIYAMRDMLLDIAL
UniProt Q8IWQ3, sequence (whole entry, looked up): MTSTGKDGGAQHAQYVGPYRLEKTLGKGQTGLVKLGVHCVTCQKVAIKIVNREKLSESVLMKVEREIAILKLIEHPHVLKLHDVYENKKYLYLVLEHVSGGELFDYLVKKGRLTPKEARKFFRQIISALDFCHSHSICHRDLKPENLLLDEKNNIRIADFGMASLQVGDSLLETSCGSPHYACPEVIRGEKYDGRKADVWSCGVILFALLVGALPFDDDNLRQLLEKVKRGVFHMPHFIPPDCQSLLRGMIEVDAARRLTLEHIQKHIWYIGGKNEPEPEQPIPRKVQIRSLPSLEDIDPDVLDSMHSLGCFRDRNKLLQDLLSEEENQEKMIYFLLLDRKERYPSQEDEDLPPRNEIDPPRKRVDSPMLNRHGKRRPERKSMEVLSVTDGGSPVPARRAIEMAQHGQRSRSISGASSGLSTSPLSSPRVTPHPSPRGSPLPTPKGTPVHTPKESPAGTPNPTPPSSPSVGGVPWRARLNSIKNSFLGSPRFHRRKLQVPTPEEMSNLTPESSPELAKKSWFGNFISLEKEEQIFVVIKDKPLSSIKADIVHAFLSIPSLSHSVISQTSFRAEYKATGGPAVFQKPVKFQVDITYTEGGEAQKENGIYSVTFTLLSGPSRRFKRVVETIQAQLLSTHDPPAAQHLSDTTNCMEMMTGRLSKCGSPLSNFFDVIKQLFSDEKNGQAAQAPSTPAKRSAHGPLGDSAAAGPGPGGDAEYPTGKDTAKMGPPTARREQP
UniProt Q8LAL2, sequence (whole entry, looked up): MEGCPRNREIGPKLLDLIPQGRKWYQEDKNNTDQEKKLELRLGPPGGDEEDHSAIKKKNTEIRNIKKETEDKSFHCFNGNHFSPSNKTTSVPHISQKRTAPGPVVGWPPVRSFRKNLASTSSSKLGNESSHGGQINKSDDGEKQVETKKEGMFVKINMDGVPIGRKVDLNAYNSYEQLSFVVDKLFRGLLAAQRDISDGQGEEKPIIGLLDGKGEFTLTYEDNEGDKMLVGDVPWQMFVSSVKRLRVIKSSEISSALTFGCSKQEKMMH
UniProt Q9P286, sequence (whole entry, looked up): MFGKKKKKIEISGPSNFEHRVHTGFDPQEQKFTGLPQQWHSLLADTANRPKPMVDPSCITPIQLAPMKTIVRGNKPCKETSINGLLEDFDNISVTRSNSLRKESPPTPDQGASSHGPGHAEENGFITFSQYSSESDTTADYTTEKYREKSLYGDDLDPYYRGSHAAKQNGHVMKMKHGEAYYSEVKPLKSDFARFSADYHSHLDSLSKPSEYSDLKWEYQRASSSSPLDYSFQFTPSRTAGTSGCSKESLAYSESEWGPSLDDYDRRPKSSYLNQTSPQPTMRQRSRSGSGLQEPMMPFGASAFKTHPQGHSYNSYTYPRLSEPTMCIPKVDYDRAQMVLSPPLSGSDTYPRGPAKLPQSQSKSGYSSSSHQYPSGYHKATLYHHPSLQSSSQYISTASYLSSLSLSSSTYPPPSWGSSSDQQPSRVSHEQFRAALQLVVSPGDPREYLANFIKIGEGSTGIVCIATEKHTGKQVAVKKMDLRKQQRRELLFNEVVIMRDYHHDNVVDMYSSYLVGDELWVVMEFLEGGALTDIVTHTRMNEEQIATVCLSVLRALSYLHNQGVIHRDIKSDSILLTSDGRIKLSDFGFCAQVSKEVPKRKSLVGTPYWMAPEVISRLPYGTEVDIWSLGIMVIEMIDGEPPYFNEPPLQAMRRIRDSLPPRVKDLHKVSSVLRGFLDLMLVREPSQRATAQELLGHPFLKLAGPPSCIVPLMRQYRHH
UniProt P51965, sequence (whole entry, looked up): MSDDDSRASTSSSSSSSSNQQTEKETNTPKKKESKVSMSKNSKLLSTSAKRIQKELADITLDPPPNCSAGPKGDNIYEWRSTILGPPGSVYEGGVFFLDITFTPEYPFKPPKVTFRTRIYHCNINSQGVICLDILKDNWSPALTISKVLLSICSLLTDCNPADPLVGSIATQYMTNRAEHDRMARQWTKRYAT
UniProt Q13404, sequence (whole entry, looked up): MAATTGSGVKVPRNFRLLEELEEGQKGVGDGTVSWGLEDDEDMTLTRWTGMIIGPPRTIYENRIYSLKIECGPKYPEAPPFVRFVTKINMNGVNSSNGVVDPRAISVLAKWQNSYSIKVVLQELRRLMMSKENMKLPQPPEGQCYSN

Sample 1 — effect on: cell-free assay; method: competition with immobilised ligand; concentration: 1 µM; quantity: remaining binding
Compound: CNC(=O)Nc1ccc2c(c1)CC[C@@]21OC(=O)N(CC(=O)N(Cc2ccc(F)cc2)[C@@H](C)C(F)(F)F)C1=O
Activin receptor type-1B (ACVR1B, Homo sapiens, UniProt P36896): 86%
Serine/threonine-protein kinase SIK2 (SIK2, Homo sapiens, UniProt Q9H0K1): 88%
Serine/threonine-protein kinase MRCK beta (CDC42BPB, Homo sapiens, UniProt Q9Y5S2): 73%
Tyrosine-protein kinase ABL1, non-phosphorylated (ABL1, Homo sapiens, UniProt P00519, F317L): 64%

Sample 2 — method: yeast two-hybrid; matrix: yeast; setting: mostly zero background; baseline: not given; reading: higher = stronger interaction; quantity: lacZ reporter activity
Sequence: SNNDLASLFECPVCFDYVLPPILQCQSGHLVCSNCRPKLTCCPTCRGPLGSIRNLA (SIAH1 RING domain (UniProt Q8IUQ4))
UBE2E1 UBC core domain (UniProt P51965): 0
UBE2U UBC core domain (UniProt Q5VVX9): 16600
UBE2G2 UBC core domain (UniProt P60604): 0
UBE2V1 UBC core domain (UniProt Q13404): 0
UBE2H UBC core domain (UniProt P62256): 0

Sample 3 — method: two-hybrid; baseline: out of 4 tests; reading: higher = firmer interaction; quantity: positive tests
Partner: ARF16 570-670 (Arabidopsis thaliana, UniProt Q93YR9)
Construct (chain): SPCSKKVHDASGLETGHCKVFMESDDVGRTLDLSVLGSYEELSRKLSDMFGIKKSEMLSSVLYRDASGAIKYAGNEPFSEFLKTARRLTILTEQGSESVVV
IAA26 (Arabidopsis thaliana, UniProt Q8LAL2): 2
IAA29 (Arabidopsis thaliana, UniProt Q93WC4): 0
ETT (Arabidopsis thaliana, UniProt O23661): 0
ARF13 (Arabidopsis thaliana, UniProt Q9FX25): 0

Sample 4 — effect on: enzyme activity; action: inhibitor; concentration: 0.5 µM; baseline: control; quantity: remaining activity
SMILES: CC(=O)O/N=C1/C(c2c(O)[nH]c3cc(Br)ccc23)=Nc2ccccc21
Serine/threonine-protein kinase BRSK2 (BRSK2, Homo sapiens, UniProt Q8IWQ3): 43.4%
Dual specificity protein kinase CLK1 (CLK1, Homo sapiens, UniProt P49759): 83.3%
Serine/threonine-protein kinase MARK1 (MARK1, Homo sapiens, UniProt Q9P0L2): 76%
Ephrin type-A receptor 2 (EPHA2, Homo sapiens, UniProt P29317): 95.8%
Insulin-like growth factor 1 receptor (IGF1R, Homo sapiens, UniProt P08069): 106%
Serine/threonine-protein kinase PAK 5 (PAK5, Homo sapiens, UniProt Q9P286): 89.1%
Casein kinase I isoform delta (CSNK1D, Homo sapiens, UniProt P48730): 92.3%
Ribosomal protein S6 kinase beta-2 (RPS6KB2, Homo sapiens, UniProt Q9UBS0): 83.7%
Casein kinase I isoform epsilon (CSNK1E, Homo sapiens, UniProt P49674): 55.8%
Serine/threonine-protein kinase SIK2 (SIK2, Homo sapiens, UniProt Q9H0K1): 54.6%
Calcium/calmodulin-dependent protein kinase type 1 (CAMK1, Homo sapiens, UniProt Q14012): 102%
SRSF protein kinase 1 (SRPK1, Homo sapiens, UniProt Q96SB4): 96.7%
Cyclin-dependent kinase 2, with cyclin E (CDK2, Homo sapiens, UniProt P24941): 24.7%

Mixed results
CCOC(=O)[C@@H]1CSCC(=O)N[C@@H](CC)C(=O)N(C)[C@@H](C)C(=O)N[C@@H](CC(C)C)C(=O)N2CCC[C@H]2C(=O)N(CC(C)C)CC(=O)N[C@H](CC(C)C)C(=O)N(C)[C@H](C)C(=O)N[C@@H](CC(C)C)C(=O)N1C
logD (hydrocarbon/water): 0.726
